Experimental data from different studies.
A part holds a random share of what one study measured.

Series 1
Target: Interferon regulatory factor 5, full length, phosphomimetic (IRF5, Homo sapiens, UniProt Q13568-2, residues 1-514, K96S/S451D/S453D/S456D/S462D)
Method: protein-binding microarray
Molecule type: double-stranded DNA, one strand shown
Medium: in vitro
Concentration: 250 nM
Setting: 60-bp whole probe
With: salmon DNA 0.4 mg/ml
Reference: random background probes
Reading: higher = stronger binding
Constant ends, left off below: GCCTAGCAC … GTCTTGATTCGCTTGACGCTGCTG
| Oligonucleotide | log fluorescence [z-score] |
| --- | --- |
| TAATTTTCATTTTCCAAATGGTGCTAG | 3.24 |
| GGATGTTGCAAATATTGCTAGGTGCTA | 0.12 |
| GACAATTTCAGTCTCGAGACGTGCTAG | 2.82 |
| TTTACTCTCTACATGGGTATGTGCTAG | 0.491 |
| GACGGTTCCCTATTCCTGACGTGCTAG | 0.176 |
| CACGATATCGGGACTGGAGACGTGCTA | 0.574 |
| CTTATTCTCTACTTGTGTCTGTGCTAG | 0.796 |
| GACGGTATCGACTTTCGTGACGTGCTA | 3.89 |
| ACGTAGAAGGAAGAAGCACGGTGCTAG | -0.242 |
| CTCAAAGTCTTTTATGGTATTGTGCTA | 0.647 |
| TTAGGTCTCGGACTGGGTAAGTGCTAG | -0.267 |
| TCATATATACAAACTAAGACTGTGCTA | 0.656 |
| GACGGACTGGCCTATCGGGACGTGCTA | -0.316 |
| TTAGGTTTCGACTTTCGGTTTGTGCTA | 10.5 |
| GACGAACTGGGGACCGGAGACGTGCTA | -0.482 |
| GAGACTCTAATATTGAGACTGTGCTAG | -0.156 |
| TTAGGTCTCGGTATCGGTTTGTGCTAG | 4.95 |
| GACGGTTCCCGTTTCGGGACGTGCTAG | 2.54 |

Series 2
Target: RNA binding protein fox-1 homolog 2, RRM domain, GST-SBP tag (RBFOX2, Homo sapiens, UniProt O43251-10, residues 100-194)
Method: RNA Bind-n-Seq
Molecule type: RNA
Medium: in vitro
Concentration: 365 nM
Setting: natural RNA segment, single round, ends assumed
Reference: no-protein control
Reading: higher = stronger binding
Constant ends, left off below: GGGAGUUCUACAGUCCGACGAUC … UGGAAUUCUCGGGUGCCAA
Residues (chain): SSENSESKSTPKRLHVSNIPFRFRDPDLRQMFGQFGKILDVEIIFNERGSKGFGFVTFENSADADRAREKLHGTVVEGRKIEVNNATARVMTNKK
| Oligonucleotide | RBNS enrichment (R) |
| --- | --- |
| AGAACAGGAACAGAACUGAGCAGGGGCAGGUCUCCAAGGCAAGCCCAGCUGGUGUGACUUAGACAAUGACGAGGCUUCAACUCACUGUCUUUUUUUUUUUUUUUUGGAGG | 0.371 |
| UUUGACUCCCACAUUGGUUGAUCACACAAAACUGUCAGCAUUUGGGUAAUCUGAUGUAUAGUUGUUUUGUUGCUGAUGUUUCCAUUGAAAUUUCAGCUCUGAGUUUGUGC | 0.29 |
| CUCGGGAAAAUGUGAAUGUGCCGCGUUUUGUUUUCAAUAUUGUAUGAAAACAGGAAAAAAAUAAAACAAAUUUAGAAAACACAGCUCAUUAAAAUAAAAUUGUUGGAUUU | 0.816 |
| AAAACAGUGUGUCACUGGUGUCACACUGGCAUCAUGGCACUGGCGUCAUGGCACUAAGCCACUCAGACCAGCUACCUGUGACCCUGGUUCUCCAAGAAGCAGACGUUGGU | 0.148 |
| AACAAAUUUUAUCAGCAGUGUUUUUUGUUUUUUUGAGAUGGAGACUUGCUCUGUCGCCCAGGCUGGAGCGCAGUGGCGCAAUCUCGGCUCACUGCAACCUCCACCUCCUG | 1 |
| ACACAAGCCAGUAUUCUGUGAACAAGUUCCAGAUGAAAAACACAGAAGUUGUGAAUGAAGUUGUAGCCAUUCCCUGCCCUGCACUAUAUUUUUCAGGGUGCAUUUUAAAU | 0.379 |
| AAGCUUAUUAUUUUAUAUCCUUUAGGUAAUAUAUGUAUAUGCUAUAUACAUAUAAUUAUAUACAUAUAUGUAAUCUCAAUUAGGCAAUUUUAAUAGACUUCACAAAAAUA | 0.565 |
| UAGACAUUGUUGGAGAAGUGGGCUGCCUUCCCCAAGUGGGGCACUGCUUAAGCACUUAUUCAGUGGAGAACACAGGUGAAAAGCAACUCAGGAUGAGGGUGGUGGAGAGG | 0.679 |
| UAAAACCACCAGCCUGAGCUCAAGGAUGAGGCCACAGGGCUCUGGUGGACUUCAAAUCCCAGCUUUACCGUCAUCACUGUUCAGUUUUCUUCGAAGGUACGGAUGAGGAG | 0.398 |
| GGAGGCAGCAAGCAAGGACAUCCUCCAGUGGUUUCCUGGAGCCACCGGCUCACUGUCUGCAGCACCUUCUCUUUCUUUCUCAUGCAUUUCAAAGCCAGCUAUCUCCUGCA | 1.31 |
| CUAAAAAUAGUUUAUUGUAUCUGACAAGAAACUUACUUAACCAUUGUGUCCUUCCCAUCUUUUUUGUCAUCUUUGUUUUCUUCAAAUGCCCUCCUCCCAUCUGCCUUGAG | 1.49 |
| GGUUGUAGAUACACUUUAUAACAUUUUAUAGUUUAAAGAGCUUUAUUAAUGCAAUAAAUUAACUUUGUACACAUUUUUAUAUAAAAAAACAGCAAGUGAUUUCAGAAUGU | 0.713 |

Series 3
Target: Histone acetyltransferase KAT6A, both winged helices, GST fusion (KAT6A, Homo sapiens, UniProt Q92794, residues 1-181)
Method: protein binding microarray
Molecule type: double-stranded DNA, one strand shown
Medium: in vitro
Concentration: not given
Setting: 8-mer, flanks averaged, mean of 2 arrays, mostly near background
Reference: not given
Reading: higher = stronger binding
Target sequence (chain): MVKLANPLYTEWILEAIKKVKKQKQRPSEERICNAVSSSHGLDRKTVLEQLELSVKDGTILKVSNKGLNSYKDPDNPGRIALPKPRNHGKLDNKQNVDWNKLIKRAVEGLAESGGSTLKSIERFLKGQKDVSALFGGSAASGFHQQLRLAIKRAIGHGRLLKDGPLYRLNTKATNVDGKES
| Oligonucleotide | E-score |
| --- | --- |
| GTGGTCAA | -0.241 |
| AATGAGGG | -0.292 |
| GAATTACA | -0.0291 |
| GGTTATCA | -0.168 |
| GAAGTATA | 0.0357 |
| AACTCGTG | -0.00293 |
| GGGACTAC | 0.0271 |
| TCTTTCAA | -0.198 |
| ATGCGTGC | 0.103 |
| AAATAGGC | 0.0571 |
| CCGTCTTC | 0.064 |
| CAATCGTG | -0.0537 |
| AAACCTAC | -0.222 |
| ACTTAGCC | -0.0318 |
| ACAGACTC | -0.0665 |
| CGACTACA | -0.0719 |
| ATACCTTC | -0.116 |
| AGTGACCG | 0.099 |
| GTCAACGA | -0.0842 |
| AGCTATTG | -0.156 |
| GAGTATAC | 0.017 |
| AACCAGGT | -0.194 |
| ACGTCTAT | -0.153 |
| CTCTCCAG | -0.265 |
| AGCTAAGA | -0.127 |

Series 4
Target: Ras GTPase-activating protein-binding protein 1, full length (G3BP1, Homo sapiens, UniProt Q13283)
Sequence of UniProt Q13283 (whole entry, looked up): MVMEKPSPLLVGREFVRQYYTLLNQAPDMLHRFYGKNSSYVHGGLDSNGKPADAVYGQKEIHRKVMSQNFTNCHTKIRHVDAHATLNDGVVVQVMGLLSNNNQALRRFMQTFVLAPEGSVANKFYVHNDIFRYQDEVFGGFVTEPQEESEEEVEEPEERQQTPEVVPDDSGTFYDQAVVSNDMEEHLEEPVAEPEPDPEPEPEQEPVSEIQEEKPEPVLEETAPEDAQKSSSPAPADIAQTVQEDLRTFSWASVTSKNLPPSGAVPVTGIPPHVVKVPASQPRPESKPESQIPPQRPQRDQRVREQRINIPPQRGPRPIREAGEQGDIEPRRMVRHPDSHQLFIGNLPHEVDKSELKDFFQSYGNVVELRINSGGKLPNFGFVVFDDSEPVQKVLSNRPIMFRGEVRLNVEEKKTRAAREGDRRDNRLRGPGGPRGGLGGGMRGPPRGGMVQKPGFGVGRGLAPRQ
Method: RNA Bind-n-Seq
Molecule type: RNA
Medium: in vitro
Concentration: 200 nM
Setting: whole 134-nt RNA, ends assumed
With: 150 mM LiCl
Reference: input library
Reading: higher = stronger binding
All molecules: 7-deaza-guanosine replaces G
Constant ends, left off below: GGGAGUUCUACAGUCCGACGAUC … UGGAAUUCUCGGGUGUCAAGG
| Oligonucleotide | log2 enrichment |
| --- | --- |
| UUUGCAGAGCAGUCUCUGAUGAAGAAUGCCAUAAAAACAUCGGAGGAGUCAUGGAUUGAACAGCAGAUGCUAGAAGACAAGAAACGGGCC | -2.19 |
| CCUCAAGUCCUGUGCUACACAUCGUAUGUACCGAAUCGGGGCGGGCGGCGGGAAAGUAUUAUGUUACGCCGUUCGGAUCUGCACUUCCAG | -0.342 |
| CAAGUCCUGUGCUACACAUCGUAUGUACCGAAUCAAACCCAAACCCAAACCCAAAAAAGUAUUAUGUUACGCCGUUCGGAUCUGCACUUC | 0.224 |
| UAACUUUAGAGGAGGAUCUGAUGGAUAUGGCAGUGGACGUGGAUUUGGGGAUGGCUAUAAUGGGUAUGGAGUAGGACCUGGAGGUGGCAA | 0.0432 |
| UUGACGAGGCCGGCCCGGGAGAUGAGACCACCGGCCAGGAAGUCAUUGUCAUUCAGGACACGGGCUUUUCUGUGAAGAUCCUCGCCCCUG | -1.51 |
| AAGUCCUGUGCUACACAUCGUAUGUACCGAAUCGGGGUUUGGGGAGGGGUUUGGGGAAAGUAUUAUGUUACGCCGUUCGGAUCUGCACUU | -0.194 |
| UGGCCCUGGUGGCAUGCGGGGAGGAAGAGGUGGCCUAAUGGAUCGUGGUGGUCCCGGUGGAAUGUUCAGAGGUGGCCGUGGUGGAGACAG | 0.581 |
| GCAGGAAGUAAAAACAAAUGGAAAUGCUUCGGAUAGUGGCACGGGUGGGGGUUGCUAAGGAAAGGGUGGGAUGGGAGUGGGUAAAGAGUU | -0.1 |
| UCCUGUGCUACACAUCGUAUGUACCGAAUCGGUUUUUUGGGUUUUUUGGGGUUUUUUGGAAAGUAUUAUGUUACGCCGUUCGGAUCUGCA | 0.798 |
| UCAAGUCCUGUGCUACACAUCGUAUGUACCGAAUCGGGCCCGGCCCGGGCCCGGAAAGUAUUAUGUUACGCCGUUCGGAUCUGCACUUCC | -0.119 |
| CUCAAGUCCUGUGCUACACAUCGUAUGUACCGAAUCGGAGGUUUUUUUGGAGGAAAGUAUUAUGUUACGCCGUUCGGAUCUGCACUUCCA | 0.383 |

Excerpt of the above (series 1):
| Oligonucleotide | log fluorescence [z-score] |
| --- | --- |
| GACGGTTCCCTATTCCTGACGTGCTAG | 0.176 |
| CACGATATCGGGACTGGAGACGTGCTA | 0.574 |
| CTTATTCTCTACTTGTGTCTGTGCTAG | 0.796 |
| GACGGTATCGACTTTCGTGACGTGCTA | 3.89 |
| ACGTAGAAGGAAGAAGCACGGTGCTAG | -0.242 |
| CTCAAAGTCTTTTATGGTATTGTGCTA | 0.647 |
| TTAGGTCTCGGACTGGGTAAGTGCTAG | -0.267 |
| TCATATATACAAACTAAGACTGTGCTA | 0.656 |
| GACGGACTGGCCTATCGGGACGTGCTA | -0.316 |
| TTAGGTTTCGACTTTCGGTTTGTGCTA | 10.5 |
| GACGAACTGGGGACCGGAGACGTGCTA | -0.482 |
